Assay results from different studies.
Lines come from different studies, so protocols differ. Numbers after ± are the reported error.
B1: acrA (Escherichia coli, UniProt P0AE06); N-terminal lipid at C25; chain CDDKQAQQGGQQMPAVGVVTVKTEPLQITTELPGRTSAYRIAEVRPQVSGIILKRNFKEGSDIEAGVSLYQIDPATYQATYDSAKGDLAKAQAAANIAQLTVNRYQKLLGTQYISKQEYDQALADAQQANAAVTAAKAAVETARINLAYTKVTSPISGRIGKSNVTEGALVQNGQATALATVQQLDPIYVDVTQSSNDFLRLKQELANGTLKQENGKAKVSLITSDGIKFPQDGTLEFSDVTVDQTTGSITLRAIFPNPDHTLLPGMFVRARLEEGLNPNAILVPQQGVTRTPRGDATVLVVGADDKVETRPIVASQAIGDKWLVTEGLKAGDRVVISGLQKVRPGVQVKAQEVTADNNQQAASGAQPEQSKS
Sequence of UniProt P31224 (whole entry, unmodified, looked up): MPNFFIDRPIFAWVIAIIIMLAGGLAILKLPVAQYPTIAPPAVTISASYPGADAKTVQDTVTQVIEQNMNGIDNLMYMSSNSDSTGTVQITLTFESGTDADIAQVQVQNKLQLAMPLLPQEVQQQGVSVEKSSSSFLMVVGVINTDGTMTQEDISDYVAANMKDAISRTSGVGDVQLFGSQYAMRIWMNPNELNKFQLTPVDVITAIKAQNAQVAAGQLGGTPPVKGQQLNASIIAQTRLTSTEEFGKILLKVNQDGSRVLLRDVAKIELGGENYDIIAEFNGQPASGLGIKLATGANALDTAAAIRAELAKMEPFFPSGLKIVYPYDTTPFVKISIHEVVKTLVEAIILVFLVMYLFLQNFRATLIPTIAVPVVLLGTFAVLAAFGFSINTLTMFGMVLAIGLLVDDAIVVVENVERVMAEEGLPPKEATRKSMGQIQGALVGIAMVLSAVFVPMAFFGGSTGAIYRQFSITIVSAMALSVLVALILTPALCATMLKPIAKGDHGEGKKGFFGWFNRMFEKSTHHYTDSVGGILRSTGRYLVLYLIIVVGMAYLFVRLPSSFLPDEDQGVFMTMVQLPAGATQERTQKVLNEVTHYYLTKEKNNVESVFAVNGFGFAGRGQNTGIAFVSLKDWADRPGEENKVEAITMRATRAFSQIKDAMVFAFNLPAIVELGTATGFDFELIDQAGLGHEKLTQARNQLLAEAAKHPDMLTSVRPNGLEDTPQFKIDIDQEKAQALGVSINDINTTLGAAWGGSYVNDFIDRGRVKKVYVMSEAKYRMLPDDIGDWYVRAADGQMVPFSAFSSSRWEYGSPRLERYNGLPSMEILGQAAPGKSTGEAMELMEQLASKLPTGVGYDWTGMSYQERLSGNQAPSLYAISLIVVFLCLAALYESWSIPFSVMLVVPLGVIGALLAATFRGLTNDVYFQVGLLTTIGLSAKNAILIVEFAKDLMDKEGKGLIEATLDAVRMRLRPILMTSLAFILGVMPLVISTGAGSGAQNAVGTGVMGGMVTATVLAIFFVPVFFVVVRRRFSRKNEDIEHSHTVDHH

Molecule	tested on	test	test system	conditions	scale	endpoint	result
Cc1ccc(NC(=S)NS(=O)(=O)c2cnc(N/N=C/c3ccccc3)[nH]c2=O)cc1	–	oral glucose tolerance test	HFD/STZ type 2 diabetic rat	oral, 10 mg/kg, together with: glucose 1 g/kg	–	glucose AUC	595 ± 50.2 mg·min/dL
C=C[C@H]1[C@H]2CCC[C@]1(c1cccc(C(N)=O)c1)CCN2CCc1ccccc1	–	pain-depressed locomotion	mice	subcutaneous, 18 mg/kg, together with: intraperitoneal lactic acid	relative to: vehicle	time of significant antinociception	30 min
atrial natriuretic peptide	–	–	rat high-fat streptozotocin diabetes	subcutaneous pump, 2 pmol/kg/min, 6 weeks, together with: sacubitril 18 mg/kg/day oral	–	ejection fraction	~85%
CC(=O)N[C@@H](CC(C)C)C(=O)NCC(=O)N[C@@H](Cc1ccc(O)cc1)C(=O)NCC(=O)N[C@@H](CCCCN)C(N)=O	–	DSC	SOPC/cholesterol 6/4 bilayers	15 mol%, pH 7.40	–	transition enthalpy	0.3 kcal/mol
O=S(=O)(F)Cc1ccccc1	–	inhibitor	mouse microglia conditioned medium	concentration not given, together with: Aβ1-42 1 µg/mL	relative to: vehicle	Aβ degradation	inhibited
CCN[C@@H]1C[C@H](N)[C@@H](O[C@H]2OC(CN)=CC[C@H]2N)[C@H](O)[C@H]1O[C@H]1OC[C@](C)(O)[C@H](NC)[C@H]1O	–	luciferase synthesis, inhibitor, coupled transcription-translation	M. smegmatis 70S ribosomes, human hybrid	60 min, 37 °C	–	IC50	64000 nM
CCC[C@@H]1NC(C)(C)CO[C@@]1(O)c1cccc(Cl)c1	–	nicotine antinociception blockade, antagonist, tail-flick test	mouse	15 min pretreatment, together with: nicotine 2.5 mg/kg subcutaneous	–	ED50	4 µg/kg
B1 (acrA)	acrB C493S/C887S/S1043C (Escherichia coli, UniProt P31224)	SPR	–	pH 7.5, 150 mM NaCl, global fit, Langmuir	–	Kd	670 nM
CCOc1ccc(Nc2c(C(=O)c3cc(OC)c(OC)c(OC)c3)sc3cc(C)ccc23)cc1	–	tubulin polymerisation, inhibitor, absorbance	–	20 min	–	IC50	> 40000 nM
Cc1ccc2cc3c(ccc4ccccc43)c3c2c1CC3	–	inducer	rat, liver	intravenous, 2.5 mg at 0 h, 48 h, together with: 7,12-dimethylbenz[a]anthracene 5 mg at 24 h	relative to: untreated control	menadione reductase activity	376%
CCCCCc1cc(O)c(C/C=C(\C)CCC=C(C)C)c(O)c1C(=O)O	–	maximal electroshock threshold	Swiss mice male	intraperitoneal, 30 mg/kg, 45 min pretreatment, 50% of mice seizing	relative to: vehicle	seizure threshold current CC50	increased
CCOC(=O)C1=C(C)NC(=S)NC1c1ccccc1Cl (centres unmarked)	–	carotid artery cannulation	male Wistar rats, anaesthetised	0.3 mL, 3 h	–	mean arterial pressure	22.7 ± 0.94 mm Hg
CC(=O)O[C@H]1C[C@H](O[C@H]2[C@@H](O)C[C@H](O[C@H]3[C@@H](O)C[C@H](O[C@H]4CC[C@@]5(C)[C@H](CC[C@@H]6[C@@H]5C[C@@H](O)[C@]5(C)[C@@H](C7=CC(=O)OC7)CC[C@]65O)C4)O[C@@H]3C)O[C@@H]2C)O[C@H](C)[C@H]1O[C@@H]1O[C@H](CO)[C@@H](O)[C@H](O)[C@H]1O	–	echocardiography	ICR mice, doxorubicin heart failure	intraperitoneal, 150 µg/kg daily, day 28	–	LV fractional shortening	increased
Cc1cccc(Cn2cc(COCc3cnc(C)c(O)c3CO)nn2)c1	–	Cu2+ chelation	–	100 µM, 30 min, 37 °C, together with: Cu2+ 100 µM	–	absorbance change	0%
CC(=O)N[C@@H](CC(C)C)C(=O)N1CCC[C@H]1C(=O)N[C@@H](Cc1ccc(O)cc1)C(=O)N1CCC[C@H]1C(=O)N[C@@H](CCCCN)C(N)=O	–	DSC	SOPC/cholesterol 7/3 bilayers	15 mol%, pH 7.40	–	transition enthalpy	1.1 kcal/mol
RmS-3, glycosylated (Rhipicephalus microplus)	F12 factor XIIa (Homo sapiens)	chromogenic substrate hydrolysis, inhibitor	–	1 µM	–	protease inhibition	< 20%
CC[C@H](C)[C@H](NC(=O)[C@@H](CCCNC(=N)N)NC(=O)[C@H](CCCNC(=N)N)NC(=O)[C@@H]1CCCN1C(=O)[C@@H]1CCCN1C(=O)[C@H](CCCNC(=N)N)NC(=O)[C@@H]1CCCN1C(=O)[C@H](CCCNC(=N)N)NC(=O)[C@@H]1CCCN1C(=O)[C@H](CC(C)C)NC(=O)[C@H](Cc1ccc(O)cc1)NC(=O)[C@@H]1CCCN1C(=O)[C@@H]1CCCN1C(=O)[C@H](CCCCN)NC(=O)[C@H](CC(=O)O)NC(=O)[C@@H](N)C(C)C)C(=O)N[C@@H](Cc1ccc(O)cc1)C(=O)N[C@@H](CC(N)=O)C(=O)N[C@H](CCCNC(=N)N)C(N)=O	–	binding, fluorescence polarization	70S ribosome, Escherichia coli BW25113	90 min, pH 7.6, 28 °C, together with: fluorescein-labelled peptide	–	Kd	75 ± 4 nM

Excerpt of the above:
Molecule	tested on	test	test system	conditions	scale	endpoint	result
B1 (acrA)	acrB C493S/C887S/S1043C (Escherichia coli, UniProt P31224)	SPR	–	pH 7.5, 150 mM NaCl, global fit, Langmuir	–	Kd	670 nM
CCOc1ccc(Nc2c(C(=O)c3cc(OC)c(OC)c(OC)c3)sc3cc(C)ccc23)cc1	–	tubulin polymerisation, inhibitor, absorbance	–	20 min	–	IC50	> 40000 nM
